Published values from different studies.
Compare with care: the assays were run in different laboratories. ± marks the error that the study gave.

Cc1cc(O)c(C=O)c2c1C(=O)Oc1c(CO)c(O)c3c(c1O2)C(O)OC3=O (stereo not shown)
relative organ weight (rat, male, streptozotocin-induced diabetes, seminal vesicle; oral, 10 mg/kg, 9 weeks): 0.22 ± 0.01 g

CCCC[C@H](NC(=O)[C@@H](NC(=O)[C@H](CC(=O)O)NC(=O)[C@H](CCC(N)=O)NC(=O)[C@H](CC(C)C)NC(=O)[C@H](CC(C)C)NC(=O)[C@H](CCCN)NC(=O)[C@H](CCCNC(=N)N)NC(=O)[C@H](C)NC(=O)[C@H](CO)NC(=O)[C@H](CC(C)C)NC(=O)[C@H](CCC(N)=O)NC(=O)[C@H](CC)NC(=O)[C@H](CC(C)C)NC(=O)[C@@H](NC(=O)[C@H](CCCN)NC(=O)[C@H](CCCNC(=N)N)NC(=O)[C@H](Cc1ccc(O)cc1)NC(=O)[C@H](CO)NC(=O)[C@H](CCC(N)=O)NC(=O)[C@@H](NC(=O)[C@H](Cc1ccccc1)NC(=O)[C@@H](NC(=O)[C@H](C)NC(=O)[C@H](CC(=O)O)NC(=O)[C@@H](C)NC(=O)[C@H](Cc1ccc(O)cc1)NC)[C@@H](C)CC)[C@@H](C)O)C(C)C)[C@@H](C)CC)C(=O)N[C@@H](CC(=O)O)C(=O)N[C@@H](CCCNC(=N)N)C(=O)NCC
relative potency (GH release; rat, male, serum; subcutaneous, dose not given, 15 and 30 min; reference: reference GHRH agonist JI-38): 1 to 4 fold

CCCCC1NC(=O)c2ccccc21 (racemic)
black tail length (thrombosis; mouse, carrageenan-induced thrombosis; oral, 20 mg/kg daily for 2 days, 48 h after carrageenan): 3.9 ± 1.1 cm

C=C(c1cc(F)c(C(=O)O)c(F)c1)c1cc2c(cc1C)C(C)(C)CCC2(C)C
log2 fold change (RNA sequencing, item: Cav1 mRNA; rat, brain; dose not given, 24 h, single dose; reference: vehicle): 0.18

C[C@H](NC(=O)COC(=O)[C@H](C)NC(=O)CO)C(=O)O
depolymerization rate constant (water; pH 8, 65 °C): 100 h⁻¹

C[C@@H](O)[C@@H]1NC(=O)[C@H](CCCCN)NC(=O)[C@@H](Cc2ccc(NC(N)=O)cc2)NC(=O)[C@H](Cc2ccc(NC(=O)[C@@H]3CC(=O)NC(=O)N3)cc2)NC(=O)[C@H](NC(=O)[C@H](Cc2ccc(Cl)cc2)NC(=O)CN2CCN(CC(=O)O)CCN(CC(=O)O)CCN(CC(=O)O)CC2)CSSC[C@@H](C(=O)N[C@H](Cc2ccc(O)cc2)C(N)=O)NC1=O [gallium-68 labelled]
median lesion SUVmax (PET/CT; neuroendocrine tumour patients, lesions, all sites; 60 min post-injection): 13

O=C1c2c(cc(O)c3c2oc2cc(O)c(O)cc23)OC1Cc1ccc(O)cc1 (stereo not shown)
EC50 (ABTS scavenging, absorbance): 1160 µM

CC1OC(Oc2c(-c3ccc(O)cc3)oc3cc(O)cc(O)c3c2=O)C(OC(=O)C=Cc2ccc(O)cc2)C(O)C1OC(=O)C=Cc1ccc(O)cc1 (stereo not shown)
CD8 T cell share (mouse C57BL/6, subcutaneous Hepa1-6, tumour; dose not given, outcome increased): increased

CCCC[C@H](NC(=O)[C@@H](NC(=O)[C@H](CC(=O)O)NC(=O)[C@H](CCC(N)=O)NC(=O)[C@H](CC(C)C)NC(=O)[C@H](CC(C)C)NC(=O)[C@H](CCCN)NC(=O)[C@H](CCCNC(=N)N)NC(=O)[C@H](C)NC(=O)[C@H](CO)NC(=O)[C@H](CC(C)C)NC(=O)[C@H](CCC(N)=O)NC(=O)[C@H](CC)NC(=O)[C@H](CC(C)C)NC(=O)[C@@H](NC(=O)[C@H](CCCN)NC(=O)[C@H](CCCNC(=N)N)NC(=O)[C@H](Cc1ccc(O)cc1)NC(=O)[C@H](CO)NC(=O)[C@@H](NC(=O)[C@@H](NC(=O)[C@H](Cc1ccccc1)NC(=O)[C@@H](NC(=O)[C@H](C)NC(=O)[C@H](CC(=O)O)NC(=O)[C@@H](C)NC(=O)[C@H](Cc1ccc(O)cc1)NC)[C@@H](C)CC)[C@@H](C)O)[C@@H](C)O)C(C)C)[C@@H](C)CC)C(=O)N[C@@H](CC(=O)O)C(=O)N[C@@H](CCCNC(=N)N)C(=O)NC
relative potency (GH release; rat, male, serum; subcutaneous, dose not given, 15 and 30 min; reference: reference GHRH agonist JI-38): 1 to 4 fold

CC(=O)c1cnc(N)nc1N1CC[C@H]1c1nn2ccc(Cl)c2c(=O)n1-c1ccccc1
IC50 (Th17 differentiation, item: IL-17A; healthy donor whole blood): 0.11 µM

CSCC[C@H](NC(=O)[C@H](CO)NC(=O)[C@@H](N)CO)C(=O)N[C@@H](CCCCN)C(=O)N[C@@H](CC(C)C)C(=O)N[C@@H](CO)C(=O)N[C@@H](Cc1ccccc1)C(=O)N[C@@H](CCCNC(=N)N)C(=O)N[C@@H](C)C(=O)N[C@@H](CCCNC(=N)N)C(=O)N[C@@H](C)C(=O)N[C@@H](Cc1ccc(O)cc1)C(=O)NCC(=O)N[C@@H](Cc1ccccc1)C(=O)N[C@@H](CCCNC(=N)N)C(=O)NCC(=O)N1CCC[C@H]1C(=O)NCC(=O)N1CCC[C@H]1C(=O)N[C@@H](CCC(N)=O)C(=O)N[C@@H](CC(C)C)C(=O)O
ED50 (glucose tolerance; DIO mouse; 0.1 to 1.0 µg/g): ~0.41 µg/g body weight

CCCC[C@H](NC(=O)[C@@H](NC(=O)[C@H](CC(=O)O)NC(=O)[C@H](CCC(N)=O)NC(=O)[C@H](CC(C)C)NC(=O)[C@H](CC(C)C)NC(=O)[C@H](CCCN)NC(=O)[C@H](CCCNC(=N)N)NC(=O)[C@H](C)NC(=O)[C@H](CO)NC(=O)[C@H](CC(C)C)NC(=O)[C@H](CCC(N)=O)NC(=O)[C@H](CC)NC(=O)[C@H](CC(C)C)NC(=O)[C@@H](NC(=O)[C@H](CCCN)NC(=O)[C@H](CCCNC(=N)N)NC(=O)[C@H](Cc1ccc(O)cc1)NC(=O)[C@H](CO)NC(=O)[C@H](CCC(N)=O)NC(=O)[C@@H](NC(=O)[C@H](Cc1ccccc1)NC(=O)[C@@H](NC(=O)[C@H](C)NC(=O)[C@H](CC(=O)O)NC(=O)[C@H](C)NC(=O)[C@H](Cc1ccc(O)cc1)NC)[C@@H](C)CC)[C@@H](C)O)C(C)C)[C@@H](C)CC)C(=O)N[C@@H](CC(=O)O)C(=O)N[C@@H](CCCNC(=N)N)C(=O)NC
relative potency (GH release; rat, male, serum; subcutaneous, 3 µg/kg, 15 min; reference: reference GHRH agonist JI-38): 2.69

Cc1ccccc1-c1cc(N2CCN(C(=O)CCC(=O)O)CC2)ccc1N(C)C(=O)C(C)(C)c1cc(C(F)(F)F)cc(C(F)(F)F)c1
duration of inhibition (mechanical allodynia, antagonist, von Frey test; hNK1R-407 mice; intrathecal, 5 µL, 100 nM, together with: capsaicin): ≥ 8 h

Cc1ccc(C(=O)Nc2ccc(CP(=O)(O)O)cc2CP(=O)(O)O)cc1NC(=O)c1cccc(NC(=O)Nc2cccc(C(=O)Nc3cc(C(=O)Nc4ccc(CP(=O)(O)O)cc4CP(=O)(O)O)ccc3C)c2)c1
concentration for APTT increase (APTT; normal human plasma; 1.5-fold increase): 311 µM

CCCC[C@H](NC(=O)[C@@H](NC(=O)[C@H](CC(=O)O)NC(=O)[C@H](CCC(N)=O)NC(=O)[C@H](CC(C)C)NC(=O)[C@H](CC(C)C)NC(=O)[C@H](CCCN)NC(=O)[C@H](CCCNC(=N)N)NC(=O)[C@H](C)NC(=O)[C@H](CO)NC(=O)[C@H](CC(C)C)NC(=O)[C@H](CCC(N)=O)NC(=O)[C@H](CC)NC(=O)[C@H](CC(C)C)NC(=O)[C@@H](NC(=O)[C@H](CCCN)NC(=O)[C@H](CCCNC(=N)N)NC(=O)[C@H](Cc1ccc(O)cc1)NC(=O)[C@H](CO)NC(=O)[C@H](CCC(N)=O)NC(=O)[C@@H](NC(=O)[C@H](Cc1ccccc1)NC(=O)[C@@H](NC(=O)[C@H](C)NC(=O)[C@H](CC(=O)O)NC(=O)[C@@H](C)NC(=O)CCc1ccc(O)cc1)[C@@H](C)CC)[C@@H](C)O)C(C)C)[C@@H](C)CC)C(=O)N[C@@H](CC(=O)O)C(=O)N[C@H](CCCNC(=N)N)C(=O)NC
relative potency (GH release; rat, male, serum; subcutaneous, 3 µg/kg, 30 min; reference: reference GHRH agonist JI-38): 2.27

COc1ccc2c(c1)c(CC(=O)OCC(=O)OC(C)(C)C)c(C)n2C(=O)c1ccc(Cl)cc1
latency of nociceptive response (hot plate test; BALB/c mice; 100 mg/kg, 30 min): 16 ± 1.02 s

CCCC[C@H](NC(=O)[C@@H](NC(=O)[C@H](CC(=O)O)NC(=O)[C@H](CCC(N)=O)NC(=O)[C@H](CC(C)C)NC(=O)[C@H](CC(C)C)NC(=O)[C@H](CCCN)NC(=O)[C@H](CCCNC(=N)N)NC(=O)[C@H](C)NC(=O)[C@H](CO)NC(=O)[C@H](CC(C)C)NC(=O)[C@H](CCC(N)=O)NC(=O)[C@H](CC)NC(=O)[C@H](CC(C)C)NC(=O)[C@@H](NC(=O)[C@H](CCCN)NC(=O)[C@H](CCCNC(=N)N)NC(=O)[C@H](Cc1ccc(O)cc1)NC(=O)[C@H](CO)NC(=O)[C@H](CC(N)=O)NC(=O)[C@@H](NC(=O)[C@H](Cc1ccccc1)NC(=O)[C@@H](NC(=O)[C@H](C)NC(=O)[C@H](CC(=O)O)NC(=O)[C@@H](C)NC(=O)[C@H](Cc1ccc(O)cc1)NC)[C@@H](C)CC)[C@@H](C)O)C(C)C)[C@@H](C)CC)C(=O)N[C@@H](CC(=O)O)C(=O)N[C@@H](CCCNC(=N)N)C(=O)NCC
relative potency (GH release; rat, male, serum; subcutaneous, 3 µg/kg, 30 min; reference: reference GHRH agonist JI-38): 1.12

CN1CCc2cc(Nc3ncc(C(F)(F)F)c(NCc4cc[nH]n4)n3)ccc2C1
CD31 expression (immunohistochemistry; C57BL/6 mice GL261 xenograft, tumour; dose not given; reference: vehicle): decreased

CCCCSc1nnc(-c2ccccc2)o1
IC50 (nitric oxide scavenging): 110 ± 5.1 µM

N=C(N)NCCC[C@@H](N)C(=O)NCC(=O)N[C@H](CCC(=O)O)C(=O)N[C@H](CCCNC(=N)N)C(=O)N1CCC[C@@H]1C(=O)N1CCC[C@@H]1C(=O)N[C@H](CCCNC(=N)N)C(N)=O
Evans blue tumour permeation increase (nude mouse C6 subcutaneous tumour; intravenous, 4 µmol/kg, 30 min, together with: Evans blue 1 mg intravenous; reference: PBS control): 36.4%

CCCC[C@H](NC(=O)[C@@H](NC(=O)[C@H](CC(=O)O)NC(=O)[C@H](CCC(N)=O)NC(=O)[C@H](CC(C)C)NC(=O)[C@H](CC(C)C)NC(=O)[C@H](CCCN)NC(=O)[C@H](CCCNC(=N)N)NC(=O)[C@H](C)NC(=O)[C@H](CO)NC(=O)[C@H](CC(C)C)NC(=O)[C@H](CCC(N)=O)NC(=O)[C@H](CC)NC(=O)[C@H](CC(C)C)NC(=O)[C@@H](NC(=O)[C@H](CCCN)NC(=O)[C@H](CCCNC(=N)N)NC(=O)[C@H](Cc1ccc(O)cc1)NC(=O)[C@H](CO)NC(=O)[C@H](CCC(N)=O)NC(=O)[C@@H](NC(=O)[C@H](Cc1ccccc1)NC(=O)[C@@H](NC(=O)[C@H](C)NC(=O)[C@H](CC(=O)O)NC(=O)[C@@H](C)NC(=O)[C@H](Cc1ccc(O)cc1)NC)[C@@H](C)CC)[C@@H](C)O)C(C)C)[C@@H](C)CC)C(=O)N[C@@H](CC(=O)O)C(=O)N[C@@H](CCCNC(=N)N)C(=O)NCCCCC(N)=O
relative potency (GH release; male rat, serum; subcutaneous, dose not given, 15 min; reference: GHRH(1-29)NH2): 92.7

NC(=O)CC[C@H](N)C(=O)N1CCC[C@H]1C(=O)NCC(=O)NCC(=O)O
activation energy (diketopiperazine formation, Arrhenius plot, ESI-MS; 1-propanol; 70, 80, 90 °C, 0.5% acetic acid): 85 ± 12 kJ/mol

O=C(/C=C/c1ccccc1)OCCCC[P+](c1ccccc1)(c1ccccc1)c1ccccc1
H2O2 level (DCFDA fluorescence; energized rat liver mitochondria; 10 µM): no effect

O=C1/C(=C/c2ccc(O)c(O)c2)Oc2c1c(O)cc1oc3cc(O)c(O)cc3c21
EC50 (ABTS scavenging, absorbance): 3340 µM

Cc1ncc2c(n1)CN(C(=O)Nc1nc(-c3cccs3)ccc1N)C2
PSD95 level (immunofluorescence; wild type mouse, hippocampal CA1; dose not given, chronic treatment): no effect

Excerpt of the above:
CC1OC(Oc2c(-c3ccc(O)cc3)oc3cc(O)cc(O)c3c2=O)C(OC(=O)C=Cc2ccc(O)cc2)C(O)C1OC(=O)C=Cc1ccc(O)cc1 (stereo not shown)
CD8 T cell share (mouse C57BL/6, subcutaneous Hepa1-6, tumour; dose not given, outcome increased): increased
